Results collected from several papers.
Compare with care: the assays were run in different laboratories.
Target: Alpha-glucosidase MAL12 (MAL12, Saccharomyces cerevisiae S288c, UniProt P53341)
Sequence of UniProt P53341 (whole entry, looked up): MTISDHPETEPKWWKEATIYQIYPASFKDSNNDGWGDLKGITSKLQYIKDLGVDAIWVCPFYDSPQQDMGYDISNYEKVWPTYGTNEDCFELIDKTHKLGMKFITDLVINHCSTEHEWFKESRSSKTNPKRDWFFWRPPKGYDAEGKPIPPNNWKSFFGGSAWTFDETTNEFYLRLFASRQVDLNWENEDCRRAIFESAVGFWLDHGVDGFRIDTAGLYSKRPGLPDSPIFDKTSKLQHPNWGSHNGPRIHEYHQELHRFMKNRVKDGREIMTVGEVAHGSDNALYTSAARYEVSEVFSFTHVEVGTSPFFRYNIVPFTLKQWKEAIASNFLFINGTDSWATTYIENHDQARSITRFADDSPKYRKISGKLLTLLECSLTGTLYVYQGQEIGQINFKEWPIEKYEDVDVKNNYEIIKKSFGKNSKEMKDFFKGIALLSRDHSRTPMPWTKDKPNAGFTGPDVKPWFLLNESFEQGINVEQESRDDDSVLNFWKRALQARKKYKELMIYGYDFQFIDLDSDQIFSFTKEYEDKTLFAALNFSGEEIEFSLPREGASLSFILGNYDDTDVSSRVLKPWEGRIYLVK
Read-out: enzyme activity
Mode: inhibitor

`O=C1C(=O)N(CCOc2ccccc2)c2ccc(Br)cc21` gave an inhibition of 87.6% (500 µM, pH 6.8).
The inhibition of `Cc1cccc(/C=C/C(=O)c2cnn(-c3ccccc3)c2C)c1` is reported as 16.1% (100 µM).
`COc1c(-c2cccc(O)c2)oc2c(OC)c(O)cc(O)c2c1=O` has an inhibition of 6.8% (absorbance; 1 µM).
For `O=c1c(-c2ccc(O)cc2)coc2c(Cn3cccn3)c(O)ccc12`, the inhibition was 62.5% (25 µM, pH 6.8).
`COc1cc(O)c2c(=O)c(OC)c(-c3ccc(O)c(O)c3)oc2c1` has an inhibition of 50.1% (absorbance; 100 µM).
`O=C1C(=O)N(CCOc2ccc(F)cc2)c2ccccc21` has an inhibition of 74.8% (500 µM, pH 6.8).
`COc1ccc(-c2c(C(F)(F)F)oc3c(Cn4nc(C)cc4C)c(O)ccc3c2=O)cc1` has an inhibition of 66.9% (25 µM, pH 6.8).
`O=C1C(=O)N(CCOc2ccc(Br)cc2)c2ccc(Cl)cc21` has an inhibition of 91.9% (500 µM, pH 6.8).
`COc1cc(-c2oc3cc(O)cc(O)c3c(=O)c2OC)ccc1O` gave an inhibition of 69.3% (absorbance; 25 µM).

Some of these lines once more:
`O=C1C(=O)N(CCOc2ccccc2)c2ccc(Br)cc21` gave an inhibition of 87.6% (500 µM, pH 6.8).
